Published values of several laboratories.
Parts stem from different laboratories: compare values within a part only.

Set 1
Target: RNA binding protein fox-1 homolog 2, RRM domain, GST-SBP tag (RBFOX2, Homo sapiens, UniProt O43251-10, residues 100-194)
Technique: RNA Bind-n-Seq
Form: RNA
Medium: in vitro
Concentration: 365 nM
Notes: natural RNA segment, single round, ends assumed
Relative to: no-protein control
Direction: higher = stronger binding
Target sequence (chain): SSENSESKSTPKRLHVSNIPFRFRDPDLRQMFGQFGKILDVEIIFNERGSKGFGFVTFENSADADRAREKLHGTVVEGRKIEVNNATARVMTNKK
Oligonucleotide | RBNS enrichment (R)
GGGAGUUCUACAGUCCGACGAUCCAUGGCUUCCCCAGCCCAGGGAGGGUAUCAGUAUCAUUCAUUCUCUCUCCCCUCACUGGUAUGGGUUCAGAGCAAUGCCUAGGGCCCCUCUCUGCUCCCCUGCCUAGUGGUGGAAUUCUCGGGUGCCAA | 0.32
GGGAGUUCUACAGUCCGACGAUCAAUGGGGCCAACAGUUCUUCCUGUUCGGUGCAGCGGGUGCUAGUAGGAUGCCCUAGUCCUUGAUGGGGCAGGGUAGGACCUCUGGGGCAGAUGGCCUCCCUGCUCUUCUGUGGAAUUCUCGGGUGCCAA | 0.683
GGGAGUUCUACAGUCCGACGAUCUCUACUAACAUGUUUAGCAAAUGGCUCUGACAGGGUGGCCAUGAGCAGAUGAGACCAGCUCUUGCUUGGUUGGAAGCCACACUGCAGUUUGCAGUUUAGCCUUUGGUGUCUGGAAUUCUCGGGUGCCAA | 0.45
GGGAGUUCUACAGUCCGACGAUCUAUGUGUUUAUCAAAUUUUGACAGGUUUUGAAUGUUCUGUCUAUACCCUAUUUUUAAGAAGUAGGUAUCAGGUACAGCCAGUGUUUUCAUUGUCUGAUUAAAACAGUUUAUGGAAUUCUCGGGUGCCAA | 0.789
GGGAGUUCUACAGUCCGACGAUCGGGCAGGCGGUCCACCUAGACCCACAGCCCCUCGGGAGCACCCCACCUCUGUGUGUGAUGUAGCUUUCUCUCCCUCAGCCUGCAAGGGUCCGAUUUGCCAUCGAAAAAGAUGGAAUUCUCGGGUGCCAA | 0.512
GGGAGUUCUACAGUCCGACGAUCGAGGGAAAUCUUUAUAUUCUGUAUAAAAACAAAAUCAAAUUUAUAUACUAAAAUCAUUUGUCUAAAAUUUAAGUUGUUUUCAAAUAAAAGUUGAAAUGCAUUCCUGUGUGUGGAAUUCUCGGGUGCCAA | 1.33

Set 2
Target: Histone acetyltransferase KAT6A, winged helix 2, GST fusion (KAT6A, Homo sapiens, UniProt Q92794, residues 85-181)
Technique: protein binding microarray
Form: double-stranded DNA, one strand shown
Medium: in vitro
Concentration: not given
Notes: 8-mer, flanks averaged, mean of 2 arrays, mostly near background
Relative to: not given
Direction: higher = stronger binding
Target sequence (chain): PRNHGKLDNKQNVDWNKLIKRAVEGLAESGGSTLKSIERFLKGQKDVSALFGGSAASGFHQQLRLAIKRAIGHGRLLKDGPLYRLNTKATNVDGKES
Oligonucleotide | E-score
CATCACGC | -0.107
CGTTGCAA | -0.0153
ACCTTTTA | -0.18
AAGGGGGT | -0.113
GGAGAAAC | 0.0822

Set 3
Target: Interferon regulatory factor 5, full length, phosphomimetic (IRF5, Homo sapiens, UniProt Q13568-2, residues 1-514, S451D/S453D/S456D/S462D)
Technique: protein-binding microarray
Form: double-stranded DNA, one strand shown
Medium: in vitro
Concentration: 940 nM top
Notes: 60-bp whole probe
Added: salmon DNA 0.4 mg/ml
Relative to: random background probes
Direction: higher = stronger binding
Shared flanks, not repeated: GCCTAGCAC … GTCTTGATTCGCTTGACGCTGCTG
Oligonucleotide | fitted relative affinity [z-score]
TTGCAGATGACGAAACTGAAGTGCTAG | 0.228
TTACAACTGGGGTTTCGATTAGTGCTA | 5.91
GTCGGTTCCCTTTTCCTGACGTGCTAG | 2.25
TTAGGTTGCGGGTTTCGGTTAGTGCTA | 5.56
CTAGGTTTCGGTTTCGGTTAGTGCTAG | 15.6

Mixed results
Molecule | target | assay | system | conditions | scale | measurement | result
PhoQ, residues 284 288 289 292 302 303 TLMATV | PhoP, residues 12 14 15 18 19 HLGGL (Escherichia coli, UniProt P23836) | Sort-seq, item: YFP reporter | E. coli | PhoQ-PhoP variant library, added: 10 µM Mg2+ | relative to: high Mg2+ state, higher = stronger signaling | fold induction | 29

For quick reference, copied from above (mixed results):
Molecule | target | assay | system | conditions | scale | measurement | result
PhoQ, residues 284 288 289 292 302 303 TLMATV | PhoP, residues 12 14 15 18 19 HLGGL (Escherichia coli, UniProt P23836) | Sort-seq, item: YFP reporter | E. coli | PhoQ-PhoP variant library, added: 10 µM Mg2+ | relative to: high Mg2+ state, higher = stronger signaling | fold induction | 29
